# Measurements pooled from the literature.
# Parts stem from different laboratories: compare values within a part only.
# UniProt P08922, sequence (whole entry, looked up): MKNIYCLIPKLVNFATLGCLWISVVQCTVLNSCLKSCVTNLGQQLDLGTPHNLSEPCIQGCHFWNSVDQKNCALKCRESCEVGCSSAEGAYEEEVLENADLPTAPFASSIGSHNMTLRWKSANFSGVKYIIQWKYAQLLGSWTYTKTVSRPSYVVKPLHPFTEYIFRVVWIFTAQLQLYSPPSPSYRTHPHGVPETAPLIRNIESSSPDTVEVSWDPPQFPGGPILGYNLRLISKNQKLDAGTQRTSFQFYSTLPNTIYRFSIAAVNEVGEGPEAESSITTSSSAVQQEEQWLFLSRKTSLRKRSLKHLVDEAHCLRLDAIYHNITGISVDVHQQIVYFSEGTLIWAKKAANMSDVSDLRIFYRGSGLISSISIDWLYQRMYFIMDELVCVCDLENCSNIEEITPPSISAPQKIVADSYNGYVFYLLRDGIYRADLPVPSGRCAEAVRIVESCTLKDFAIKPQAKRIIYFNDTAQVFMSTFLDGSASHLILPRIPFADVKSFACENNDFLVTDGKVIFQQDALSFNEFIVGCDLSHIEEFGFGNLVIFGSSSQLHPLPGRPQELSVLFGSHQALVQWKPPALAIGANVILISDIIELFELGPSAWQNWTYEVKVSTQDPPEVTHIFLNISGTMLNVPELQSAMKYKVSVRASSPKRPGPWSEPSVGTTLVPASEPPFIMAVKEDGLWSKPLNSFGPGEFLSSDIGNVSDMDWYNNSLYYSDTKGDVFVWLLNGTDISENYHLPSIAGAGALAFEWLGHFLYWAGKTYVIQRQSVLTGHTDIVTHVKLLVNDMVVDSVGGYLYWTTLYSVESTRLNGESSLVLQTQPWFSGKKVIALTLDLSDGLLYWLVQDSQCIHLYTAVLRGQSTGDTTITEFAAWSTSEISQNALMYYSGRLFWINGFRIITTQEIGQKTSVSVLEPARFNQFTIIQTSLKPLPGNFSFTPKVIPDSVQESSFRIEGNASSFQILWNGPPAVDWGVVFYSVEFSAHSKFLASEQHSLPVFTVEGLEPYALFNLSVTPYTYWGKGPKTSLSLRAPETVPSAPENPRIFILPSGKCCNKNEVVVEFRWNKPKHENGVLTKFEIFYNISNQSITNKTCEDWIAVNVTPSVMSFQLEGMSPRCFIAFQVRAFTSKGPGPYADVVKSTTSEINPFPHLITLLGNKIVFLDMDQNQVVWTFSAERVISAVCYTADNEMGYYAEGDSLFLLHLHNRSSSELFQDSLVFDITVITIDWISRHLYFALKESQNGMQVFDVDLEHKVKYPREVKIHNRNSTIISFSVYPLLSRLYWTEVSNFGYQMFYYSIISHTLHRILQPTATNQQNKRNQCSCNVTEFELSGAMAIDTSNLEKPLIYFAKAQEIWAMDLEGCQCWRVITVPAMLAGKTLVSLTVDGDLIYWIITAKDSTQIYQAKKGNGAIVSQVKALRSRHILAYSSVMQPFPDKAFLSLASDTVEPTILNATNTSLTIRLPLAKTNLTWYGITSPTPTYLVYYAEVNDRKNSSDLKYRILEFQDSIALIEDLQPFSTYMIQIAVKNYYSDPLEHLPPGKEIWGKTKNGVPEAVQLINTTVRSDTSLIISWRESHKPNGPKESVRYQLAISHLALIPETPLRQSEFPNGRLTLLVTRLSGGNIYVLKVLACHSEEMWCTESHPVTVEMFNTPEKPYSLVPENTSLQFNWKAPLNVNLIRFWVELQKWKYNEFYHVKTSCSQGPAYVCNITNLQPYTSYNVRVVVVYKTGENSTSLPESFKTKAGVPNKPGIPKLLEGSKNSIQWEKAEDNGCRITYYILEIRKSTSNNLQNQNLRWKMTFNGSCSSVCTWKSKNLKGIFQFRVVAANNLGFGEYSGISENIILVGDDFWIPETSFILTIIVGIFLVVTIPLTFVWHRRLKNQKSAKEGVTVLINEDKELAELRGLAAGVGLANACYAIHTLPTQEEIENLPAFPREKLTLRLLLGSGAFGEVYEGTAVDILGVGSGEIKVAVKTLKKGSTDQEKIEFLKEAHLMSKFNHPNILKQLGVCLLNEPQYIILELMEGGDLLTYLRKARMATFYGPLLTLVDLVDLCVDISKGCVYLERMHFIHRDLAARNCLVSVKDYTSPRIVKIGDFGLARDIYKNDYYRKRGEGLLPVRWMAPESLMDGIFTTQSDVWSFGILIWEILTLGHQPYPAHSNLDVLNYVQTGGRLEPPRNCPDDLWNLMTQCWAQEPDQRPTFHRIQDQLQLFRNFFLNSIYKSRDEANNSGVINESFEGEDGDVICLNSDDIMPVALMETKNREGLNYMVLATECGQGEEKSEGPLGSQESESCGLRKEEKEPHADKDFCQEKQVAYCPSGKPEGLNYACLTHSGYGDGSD
# UniProt P50750, sequence (whole entry, looked up): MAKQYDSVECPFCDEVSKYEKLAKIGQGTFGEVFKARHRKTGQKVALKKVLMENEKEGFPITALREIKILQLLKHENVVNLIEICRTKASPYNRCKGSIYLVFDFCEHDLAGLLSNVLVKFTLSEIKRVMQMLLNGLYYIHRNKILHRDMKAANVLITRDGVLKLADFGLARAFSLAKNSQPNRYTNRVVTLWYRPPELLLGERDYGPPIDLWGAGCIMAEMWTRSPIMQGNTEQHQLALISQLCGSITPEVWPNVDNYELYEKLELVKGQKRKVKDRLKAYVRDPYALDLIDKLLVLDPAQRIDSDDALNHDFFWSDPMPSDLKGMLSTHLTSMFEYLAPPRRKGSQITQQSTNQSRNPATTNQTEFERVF
# UniProt O15075, sequence (whole entry, looked up): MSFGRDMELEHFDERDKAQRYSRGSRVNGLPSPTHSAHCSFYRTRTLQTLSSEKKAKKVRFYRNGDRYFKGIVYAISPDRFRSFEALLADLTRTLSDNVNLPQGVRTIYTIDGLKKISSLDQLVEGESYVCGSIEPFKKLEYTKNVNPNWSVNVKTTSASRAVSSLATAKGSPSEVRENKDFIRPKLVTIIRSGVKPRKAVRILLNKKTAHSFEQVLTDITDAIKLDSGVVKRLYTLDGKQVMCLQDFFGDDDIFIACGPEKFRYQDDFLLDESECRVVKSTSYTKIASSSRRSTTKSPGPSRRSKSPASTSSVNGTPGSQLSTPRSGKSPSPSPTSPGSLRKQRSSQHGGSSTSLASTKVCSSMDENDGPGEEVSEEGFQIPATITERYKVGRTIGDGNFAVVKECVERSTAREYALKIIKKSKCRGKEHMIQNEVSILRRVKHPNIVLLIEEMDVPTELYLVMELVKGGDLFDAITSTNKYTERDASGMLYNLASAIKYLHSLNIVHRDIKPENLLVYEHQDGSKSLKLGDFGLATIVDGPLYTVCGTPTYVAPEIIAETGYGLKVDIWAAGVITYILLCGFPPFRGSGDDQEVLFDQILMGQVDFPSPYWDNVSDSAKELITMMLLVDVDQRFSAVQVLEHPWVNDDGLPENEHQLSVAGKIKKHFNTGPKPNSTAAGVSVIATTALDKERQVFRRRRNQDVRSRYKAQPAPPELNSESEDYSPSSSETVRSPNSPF
# UniProt Q9UBF8, sequence (whole entry, looked up): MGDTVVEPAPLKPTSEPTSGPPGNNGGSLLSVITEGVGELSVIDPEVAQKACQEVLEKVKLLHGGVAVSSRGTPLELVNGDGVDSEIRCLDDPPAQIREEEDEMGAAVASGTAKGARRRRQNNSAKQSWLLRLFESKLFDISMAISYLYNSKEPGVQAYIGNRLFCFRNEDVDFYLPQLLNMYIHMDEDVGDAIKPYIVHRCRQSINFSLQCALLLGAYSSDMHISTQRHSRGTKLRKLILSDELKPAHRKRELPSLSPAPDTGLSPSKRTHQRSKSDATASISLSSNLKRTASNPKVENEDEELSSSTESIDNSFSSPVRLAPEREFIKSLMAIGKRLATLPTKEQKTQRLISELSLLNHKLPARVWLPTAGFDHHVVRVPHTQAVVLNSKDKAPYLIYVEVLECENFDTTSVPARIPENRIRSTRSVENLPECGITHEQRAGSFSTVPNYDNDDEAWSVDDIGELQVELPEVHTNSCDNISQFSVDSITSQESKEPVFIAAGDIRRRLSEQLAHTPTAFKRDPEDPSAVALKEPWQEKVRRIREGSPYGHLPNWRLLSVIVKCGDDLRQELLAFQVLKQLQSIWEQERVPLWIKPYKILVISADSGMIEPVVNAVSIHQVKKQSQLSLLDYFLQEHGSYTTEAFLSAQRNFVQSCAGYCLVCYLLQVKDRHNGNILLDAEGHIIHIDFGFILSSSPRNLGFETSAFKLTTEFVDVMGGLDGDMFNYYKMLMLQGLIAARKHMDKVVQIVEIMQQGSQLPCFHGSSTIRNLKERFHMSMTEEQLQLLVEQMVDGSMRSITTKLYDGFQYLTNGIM

# Block 1
# Target: Interferon regulatory factor 7, full length, phosphomimetic (IRF7, Homo sapiens, UniProt Q92985, residues 1-503, S471D/S472D/S475D/S476D/S477D/S483D/S484D/S487D)
# UniProt Q92985, sequence (whole entry, unmodified, looked up): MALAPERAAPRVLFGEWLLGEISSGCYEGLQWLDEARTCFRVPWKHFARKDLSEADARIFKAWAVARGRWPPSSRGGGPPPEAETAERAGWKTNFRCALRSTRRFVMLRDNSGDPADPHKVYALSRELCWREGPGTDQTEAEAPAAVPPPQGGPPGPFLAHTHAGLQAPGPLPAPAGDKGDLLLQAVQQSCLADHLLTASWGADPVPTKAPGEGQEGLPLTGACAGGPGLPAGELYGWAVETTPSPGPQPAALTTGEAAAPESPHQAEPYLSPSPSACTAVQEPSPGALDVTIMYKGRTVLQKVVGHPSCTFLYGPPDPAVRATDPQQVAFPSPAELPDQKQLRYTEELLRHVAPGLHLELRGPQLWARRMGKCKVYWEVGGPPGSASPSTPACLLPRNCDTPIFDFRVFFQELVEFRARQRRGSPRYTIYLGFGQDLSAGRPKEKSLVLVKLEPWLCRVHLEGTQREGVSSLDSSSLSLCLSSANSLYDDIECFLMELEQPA
# Method: protein-binding microarray
# Form: double-stranded DNA, one strand shown
# Matrix: in vitro
# Tested at: 2200 nM top
# Notes: 60-bp whole probe
# Added: salmon DNA 0.4 mg/ml
# Baseline: random background probes
# Reading: higher = stronger binding
# All sequences stand within: GCCTAGCAC … GTCTTGATTCGCTTGACGCTGCTG
Strand,fitted relative affinity
TCATATTTTTTTGTAATACTGTGCTAG,0.898 z-score
TTAGGTATTGACACTGGGTTAGTGCTA,-0.122 z-score
ACTCAGTAACATTATTGTAGGTGCTAG,0.88 z-score
TTAGGACTGGGGACGGGGTTAGTGCTA,-0.121 z-score
GTAGGACTGCTTCTCCTTTAGTGCTAG,0.822 z-score
TTAGGACTGGGTTTCAGTTAGTGCTAG,0.359 z-score
TAAGAACTGGGGACTGGATTAGTGCTA,-0.448 z-score
TTAGGTATCGGGTTTCGCTTAGTGCTA,2.75 z-score

# Block 2
# Structure (SMILES): Cc1cc(C)c(-n2ccn3nc(-c4cccnc4)cc23)cc1NC(=O)c1cc(C#N)cc(S(F)(F)(F)(F)F)c1
# Method: competition with immobilised ligand
# Tested at: 0.1 µM
target,read-out,remaining binding [%]
"DCLK1 (Homo sapiens, UniProt O15075)",cell-free assay,73.6
"STK36 (Homo sapiens, UniProt Q9NRP7)",cell-free assay,80.8
"Tyrosine-protein kinase ABL1, phosphorylated (ABL1, Homo sapiens, UniProt P00519, Q252H)",cell-free assay,72.9
"CDK9 (Homo sapiens, UniProt P50750)",cell-free assay,85.5
"LYN (Homo sapiens, UniProt P07948)",cell-free assay,46
"PIK3C2B (Homo sapiens, UniProt O00750)",cell-free assay,93.4
"ROS1 (Homo sapiens, UniProt P08922)",cell-free assay,100
"PI4KB (Homo sapiens, UniProt Q9UBF8)",cell-free assay,64.7
"PRKD1 (Homo sapiens, UniProt Q15139)",cell-free assay,81.2
"EPHB2 (Homo sapiens, UniProt P29323)",cell-free assay,71.4
"BMPR1A (Homo sapiens, UniProt P36894)",binding,97.2
"COQ8B (Homo sapiens, UniProt Q96D53)",cell-free assay,93.2

# Block 3
# Target: Proto-oncogene tyrosine-protein kinase ROS (ROS1, Homo sapiens, UniProt P08922)
# Read-out: enzyme activity
# Mode: inhibitor
# Tested at: 0.5 µM
# Baseline: control
Compound,remaining activity [%]
O=C(O)c1ccc2c3c1cccc3c(=O)n1c3ccccc3nc21,95.2
CCOC(=O)c1c(C)[nH]c(/C=C2\C(=O)Nc3ccccc32)c1C,99.1
O=C(Nc1cccc(Nc2cc(Nc3cccc(C(F)(F)F)c3)ncn2)c1)C1CC1,93.5
OCC(O)CCON=C1C(c2c(O)[nH]c3ccccc23)=Nc2ccccc21 (stereo not drawn),27
Cc1ccc(Nc2nccc(N(C)c3ccc4c(C)n(C)nc4c3)n2)cc1S(N)(=O)=O,17

# Block 4
# Target: RNA binding protein fox-1 homolog 2, RRM domain, GST-SBP tag (RBFOX2, Homo sapiens, UniProt O43251-10, residues 100-194)
# Method: RNA Bind-n-Seq
# Form: RNA
# Matrix: in vitro
# Tested at: 365 nM
# Notes: natural RNA segment, single round, ends assumed
# Baseline: no-protein control
# Reading: higher = stronger binding
# All sequences stand within: GGGAGUUCUACAGUCCGACGAUC … UGGAAUUCUCGGGUGCCAA
# Residues (chain): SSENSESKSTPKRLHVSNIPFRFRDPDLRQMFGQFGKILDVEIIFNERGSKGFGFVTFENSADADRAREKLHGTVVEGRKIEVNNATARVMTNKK
Strand,RBNS enrichment (R)
AUCCUAGUAUGAUUGGUUAUAUCAAGAAUUGACAAGUGCAGAUAAAGACCUUUCCCAUAGGAGUUCAAGAACUGGACUGUUGUGAAGAAGUCAGCUCUUAUCUCAGGUUG,0.617
GGAAAUACCCCUAGUCCCCAAAGUUCACUUCUAGCUGCAGGUAGACAAUGAGUAACUGGUCUACUGAACCCUUUAAUAGCAUUUUAAUGUUACUGAGUCAGGAGAUUCAU,0.449
CAGUUUUUAUAGUUUUCCACAACCAAGCCACCCUUCACAGAUAAAAUAUGAUGCUGGCAUGGCAAUCAGACCAAAGCACUGUCCCCAAUUGUUGUCUUAACUAUGACUAG,0.397
GUAUUCUUUUUCAACAUGUAGGGCAAGAGGAUGAAGGAAGGGGCUAUCCUGGGACCUCCCCAGCCCAGGAAAAACUGGAAGCCUUCCCCCAGCAAGGCAGAAGCUUGGAG,0.806
ACAGAUACAGUCUCCUUGGCUUAUAGGACUUCCUAGCUACACUUUCCUUAGCGCAUUAAUGUGAUGCUCACUCUGUGUUAAAACUGCAGCCGUUGUCUUUCUCAACUGCU,0.274
CCGCCUCCCUGGGACCUGGAUUGGGUCAGAUGCCUGUCCUUGGAGGGGACAAGGUUGACUGCUUAGGAGGCGCGACGCACAGGGCUGCCAGGCCUGGCCCCUCUCUGGGA,0.474
GCAUUGCCAGCCUCAUCUGCGGAGCCAGAGCCGUCCUUCUUCUCACAGCGGCCUCAGCGUCCCCAGAGCCGAGCCAGGGUGUGAGUGCAUGUGAACGUUGAGUACACAUG,0.568
GCGAGGUUAAAAAAAUGUGCCUCGUGGAUCUCCCUGUUUUAGUAACAUGGAGAGAAAAAGUCUACACGAAAAAGUGAACAAUUUAAUGAAGAUGAUUAGCCUUCCUUGAA,0.301

# Repeated from above (block 4):
Strand,RBNS enrichment (R)
GCGAGGUUAAAAAAAUGUGCCUCGUGGAUCUCCCUGUUUUAGUAACAUGGAGAGAAAAAGUCUACACGAAAAAGUGAACAAUUUAAUGAAGAUGAUUAGCCUUCCUUGAA,0.301
CAGUUUUUAUAGUUUUCCACAACCAAGCCACCCUUCACAGAUAAAAUAUGAUGCUGGCAUGGCAAUCAGACCAAAGCACUGUCCCCAAUUGUUGUCUUAACUAUGACUAG,0.397
AUCCUAGUAUGAUUGGUUAUAUCAAGAAUUGACAAGUGCAGAUAAAGACCUUUCCCAUAGGAGUUCAAGAACUGGACUGUUGUGAAGAAGUCAGCUCUUAUCUCAGGUUG,0.617
ACAGAUACAGUCUCCUUGGCUUAUAGGACUUCCUAGCUACACUUUCCUUAGCGCAUUAAUGUGAUGCUCACUCUGUGUUAAAACUGCAGCCGUUGUCUUUCUCAACUGCU,0.274
GUAUUCUUUUUCAACAUGUAGGGCAAGAGGAUGAAGGAAGGGGCUAUCCUGGGACCUCCCCAGCCCAGGAAAAACUGGAAGCCUUCCCCCAGCAAGGCAGAAGCUUGGAG,0.806
